Measurements pooled from the literature.
Lines come from different studies, so protocols differ. “And” joins repeats or separate records; there may be more than shown. Numbers after ± are the reported error.

COc1ccccc1-c1cccc(CN2CCCC(C(=O)NCc3ccc(F)cc3)C2)c1 (stereo not drawn) — efficacy (SARS-CoV-2; cytopathic effect; USA_WA1/2020; round 1, 5-point): 70.2%
IDAYPLTKHPNQEYA — responding donors (human CD4 T cells; AIM; peptide): 14%
O=C1Nc2ccc(Cl)cc2[C@@](C#CC2CC2)(C(F)(F)F)O1 — EC50 (HIV-1; viral replication, single-round infection; RT mutant L234I): 0.8 ± 0.1 nM
CNC(=O)[C@@H](NC(=O)[C@H](CC(C)C)[C@H](O)C(=O)NO)C(C)(C)C — remaining activity (Daboia russelii venom proteases (SVMP); protease activity, inhibitor; KA population; 1 µM, together with: azocasein substrate; baseline: venom alone): 83.4% and 85.7% and 87.8%
Nc1ncnc2c([C@@H]3N[C@H](CO)[C@@H](O)[C@H]3O)c[nH]c12 — inhibition (Marburg virus; viral replication; HeLa, Angola; 100 µM): 98.5%
Cc1cn2cc(C(=O)N3CCN(c4nc5ccccc5s4)CC3)ccc2n1 — remaining activity (Lassa mammarenavirus; viral replication; Huh-7; 10 µM, 72 h): 48%
LPYGANKDGIIWVAT — responding donors (human CD4 T cells; AIM; peptide): 14%
Cc1cnc(NCCN2CCCCCC2)nc1N(C)C — remaining activity (Lassa mammarenavirus; viral replication; Huh-7; 10 µM, 72 h): 43%
Cc1cc(/C=C/C#N)cc(C)c1-n1cnc2cnc(Nc3ccc4cc(C#N)ccc4c3)nc21 — EC50 (HIV-1; viral replication, single-round infection; RT mutant E40K): < 5 nM
CCCN(CCC)CCCNC(=O)C1CCCN(Cc2nc(-c3ccc(Cl)cc3)oc2C)C1 (stereo not drawn) — efficacy (SARS-CoV-2; cytopathic effect; USA_WA1/2020; retest 8-point): 87.6%
CSc1ccc2c(c1)C(N1CCN(C)CC1)Cc1ccccc1S2.O=C(O)/C=C\C(=O)O (stereo not drawn) — maximal inhibition (HeLa; Ebola VLP entry): 99%
CN1CCCC2(C1)CN(Cc1cccnc1)c1ccc(C(=O)NCC3CCCCC3)cc12 (stereo not drawn) — efficacy (SARS-CoV-2; cytopathic effect; USA_WA1/2020; retest, 8-point, duplicates): 124%
COP(=O)(OC)OC=C(Cl)Cl — Vmax (rat CYP2C; tolbutamide hydroxylation; liver microsomes; concentration not given): 0.93 ± 0.3 nmol/min/mg protein
CCN1C(=O)N(CCc2ccccc2)C2(CCN(Cc3cccn3-c3ccc(Cl)cn3)CC2)C1=O — remaining activity (Lassa mammarenavirus; viral replication; Huh-7; 10 µM, 72 h): 44%
TNCYDYCIPYNSVTS — responding donors (human CD4 T cells; AIM; peptide): 7%
O=C(NCc1ccccc1Cl)C1CCCN(Cc2cccc(-c3ccc(F)cc3F)c2)C1 (stereo not drawn) — efficacy (SARS-CoV-2; cytopathic effect; USA_WA1/2020; retest, 8-point, duplicates): 37.3%
Cc1ccc(-c2cn(CC3CCN(c4cc(C)nc(N)n4)CC3)nn2)cc1 — remaining activity (Lassa mammarenavirus; viral replication; Huh-7; 10 µM, 72 h): 41%
VTYVPAQEK — frequency of responding donors (AIM; peptide, CD8+ T cells from PBMC, human donors; HLA-A*30:01 restricted, unit not given; baseline: positive over tested donors): 33
Cc1cc(/C=C/C#N)cc(C)c1Nc1nc(Nc2ccc3cc(C#N)ccc3c2)ncc1N — EC50 (HIV-1; viral replication, single-round infection; RT mutant K101E/M184I): > 7 nM
MEVTPSGTWL — frequency of responding donors (AIM; peptide, CD8+ T cells from PBMC, human donors; HLA-B*40:01 restricted, unit not given; baseline: positive over tested donors): 40
Cc1cc(/C=C/C#N)cc(C)c1Nc1ccnc(Nc2ccc(C#N)cc2)n1 — EC50 (HIV-1; viral replication, single-round infection; RT mutant K101P): 6.2 ± 1.6 nM
CN1CCN(c2ncnc3ccc(-c4cccc5[nH]ccc45)cc23)CC1 — remaining activity (Lassa mammarenavirus; viral replication; Huh-7; 10 µM, 72 h): 29%
RFYFYTSKTTVASLI — responding donors (human CD4 T cells; AIM; peptide): 8%
O=C(C1CC(=O)N(C2CC2)C1)N1CCC2(CC1)Cc1cccc(c1)Oc1cccc(c1)CCNC2=O (stereo not drawn) — Emax (Lassa mammarenavirus; viral replication; Huh-7; concentration not given): 12.5%
TFKCYGVSPTKLNDL — responding donors (human CD4 T cells; AIM; peptide): 8%
CCc1c(C(=O)C(N)=O)c2c(OCC(=O)O)cccc2n1Cc1ccccc1 — time to death (Southeast population, mouse; 60 µg/mouse, preincubated with venom): 0.13 h and 0.05 h and 0.08 h
Cn1c(Cn2ccc(C(F)(F)F)c(Oc3cc(Cl)cc(C#N)c3)c2=O)n[nH]c1=O — EC50 (HIV-1; viral replication, single-round infection; RT mutant V111A): 0.3 ± 0.1 nM
COc1ccc(Nc2nc(Nc3ccc(OC)cc3OC)nc(N3CCOCC3)n2)c(OC)c1 — maximum response (SARS-CoV-2; cytopathic effect; USA_WA1/2020; retest 8-point): 86.4%
NPVLPFNDGVYFAST — responding donors (human CD4 T cells; AIM; peptide): 9%
CCCCN(C)CCCNC(=O)c1ccc2nc(N3CCCCC3)sc2c1 — efficacy (SARS-CoV-2; cytopathic effect; USA_WA1/2020; round 2, 5-point): 69.9%
LPYAK — transition enthalpy (DSC; peptide, 6/4 SOPC/cholesterol bilayers; 10 mol%, pH 7.40, SOPC chain melting transition): 0.3 kcal/mol
N#CC(C#N)=NNc1cccc(Cl)c1 — FIC index (Escherichia coli; checkerboard; tetracycline-resistant; 42 µM, together with: tetracycline): 0.75
CC1CCCN(CCCNC(=O)c2cc(Sc3ccc(F)cc3)nc3ccccc23)C1 (stereo not drawn) — efficacy (SARS-CoV-2; cytopathic effect; USA_WA1/2020; first round 5-point): 109%
NC(=O)CCNC(=O)c1ccccc1S — EC50 (HIV-1; viral replication; human PBMC, subtype A 92RW009, CCR5-tropic clinical isolate): 4530 ± 520 nM
CNCCN(C)c1nc(NC(C)c2ccccc2)c2ccccc2n1 (stereo not drawn) — maximal response (SARS-CoV-2; cytopathic effect, cell-based CPE; USA_WA1/2020; round 2, 5-point dilution): 102%
Cc1cn([C@H]2C[C@H](N=[N+]=[N-])[C@@H](CO)O2)c(=O)[nH]c1=O — EC50 (HIV-1; viral replication; human PBMC, subtype G G3, CCR5-tropic clinical isolate): 4.27 ± 5 nM

Excerpt of the above:
CSc1ccc2c(c1)C(N1CCN(C)CC1)Cc1ccccc1S2.O=C(O)/C=C\C(=O)O (stereo not drawn) — maximal inhibition (HeLa; Ebola VLP entry): 99%
CN1CCCC2(C1)CN(Cc1cccnc1)c1ccc(C(=O)NCC3CCCCC3)cc12 (stereo not drawn) — efficacy (SARS-CoV-2; cytopathic effect; USA_WA1/2020; retest, 8-point, duplicates): 124%
COP(=O)(OC)OC=C(Cl)Cl — Vmax (rat CYP2C; tolbutamide hydroxylation; liver microsomes; concentration not given): 0.93 ± 0.3 nmol/min/mg protein
CCN1C(=O)N(CCc2ccccc2)C2(CCN(Cc3cccn3-c3ccc(Cl)cn3)CC2)C1=O — remaining activity (Lassa mammarenavirus; viral replication; Huh-7; 10 µM, 72 h): 44%
